Measurements of several laboratories.
± gives the spread as reported.
Target: Voltage-gated inwardly rectifying potassium channel KCNH2 (KCNH2, Homo sapiens, UniProt Q12809)
Chain of UniProt Q12809 (whole entry, looked up): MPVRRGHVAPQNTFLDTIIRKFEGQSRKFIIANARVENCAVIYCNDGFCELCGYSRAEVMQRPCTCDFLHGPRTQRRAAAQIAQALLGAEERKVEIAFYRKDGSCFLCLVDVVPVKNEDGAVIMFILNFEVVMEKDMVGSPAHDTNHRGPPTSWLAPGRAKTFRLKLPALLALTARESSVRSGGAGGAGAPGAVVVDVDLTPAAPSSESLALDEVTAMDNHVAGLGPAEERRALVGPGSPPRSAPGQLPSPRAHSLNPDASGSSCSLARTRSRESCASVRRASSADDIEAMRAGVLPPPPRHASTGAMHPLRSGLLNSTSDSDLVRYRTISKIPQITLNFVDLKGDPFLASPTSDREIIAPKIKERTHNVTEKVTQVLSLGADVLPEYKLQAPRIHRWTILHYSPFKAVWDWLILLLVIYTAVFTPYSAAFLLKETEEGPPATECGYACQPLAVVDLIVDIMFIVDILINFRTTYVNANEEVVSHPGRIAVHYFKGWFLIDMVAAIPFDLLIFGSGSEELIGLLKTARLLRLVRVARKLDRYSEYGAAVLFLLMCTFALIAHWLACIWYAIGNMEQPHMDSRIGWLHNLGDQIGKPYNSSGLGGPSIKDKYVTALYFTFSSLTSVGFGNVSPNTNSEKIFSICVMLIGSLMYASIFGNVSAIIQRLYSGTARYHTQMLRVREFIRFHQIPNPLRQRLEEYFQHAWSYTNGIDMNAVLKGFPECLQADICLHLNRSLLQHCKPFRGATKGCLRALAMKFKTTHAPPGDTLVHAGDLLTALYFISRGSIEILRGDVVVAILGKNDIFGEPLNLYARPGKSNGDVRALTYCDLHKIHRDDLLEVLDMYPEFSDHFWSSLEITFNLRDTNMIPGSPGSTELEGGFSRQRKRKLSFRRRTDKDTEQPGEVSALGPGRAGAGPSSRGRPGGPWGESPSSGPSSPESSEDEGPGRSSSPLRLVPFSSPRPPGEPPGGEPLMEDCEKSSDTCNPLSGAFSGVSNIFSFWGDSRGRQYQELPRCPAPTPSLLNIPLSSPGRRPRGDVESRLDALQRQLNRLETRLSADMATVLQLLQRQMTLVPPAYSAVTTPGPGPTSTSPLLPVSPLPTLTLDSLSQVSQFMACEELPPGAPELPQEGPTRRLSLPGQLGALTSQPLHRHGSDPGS

SMILES	assay	test system	setting	how to read	quantity	value
CC1(F)CN(C(=O)Cn2c(=O)c(C(=O)NCc3ccc(Cl)cc3)cc3nc(N4CCN(CCN)C4=O)cnc32)C1	ion current, inhibitor, patch clamp	–	40 µM	–	inhibition	29%
c1ccc(OC[C@H]2CN(CCN3CCc4ccccc43)CCO2)nc1	potassium current inhibition, inhibitor, PatchXpress electrophysiology	–	–	–	Emax	64.3 ± 8.8%
C[N+](C)(CI)CCO	ion current, inhibitor, patch clamp	HEK293	pH 7.35	–	IC50	> 30 µM
Cn1ccc2cc(-n3c(=O)[nH]c4sc5c(c4c3=O)CCCC5)ccc21	ion current, inhibitor	–	10 µM	–	inhibition	4%
CC(=O)N(C)CCN1CCN(c2cnc3c(cc(C(=O)NCc4ccc(Cl)cc4)c(=O)n3CC(=O)N3CC(C)(F)C3)n2)C1=O	–	–	–	baseline: hERG IC50 over antiviral EC50	therapeutic index	7.2
Cc1cccc(O[C@H]2CCC[C@@H](C(C)CNCc3ccncc3)C2)c1 (relative stereo)	Cerep safety panel	–	10 µM	–	inhibition	84%
O=C(O)c1ccc(/C=C2\SC(=S)N(Cc3cccc(C(F)(F)F)c3)C2=O)cc1	ion current, inhibitor, patch clamp	CHO	10 µM	–	inhibition	-3.94%
O=C1NC2(CC2)COc2ncc(F)cc2[C@H]2COCCN2c2ccn3ncc1c3n2	potassium current, whole-cell patch clamp	CHO cells expressing hERG	1.48 µM	–	inhibition	8.57 ± 1.15%
O=C(CN1CCO[C@@H](COc2cccc(Cl)c2)C1)N1CCc2ccccc21	potassium current inhibition, inhibitor, PatchXpress electrophysiology	–	–	–	Hill slope	0.73 ± 0.15
Cc1cc(/C=C/C#N)cc(C)c1Oc1nc(NC2CCN(Cc3ccc(S(C)(=O)=O)cc3)CC2)nc2ncccc12	hERG current, manual patch clamp	CHO stably expressing hERG	10 µM	–	inhibition	88.3%
Cc1[nH]nc2c1N=C(c1ccccc1Cl)c1cnc(N3CCOCC3)cc1N2	–	–	10 µM	–	inhibition	5%
CN1CCCN(c2cnc3c(cc(C(=O)NCc4ccc(Cl)cc4)c(=O)n3CC(=O)N3CC(C)(F)C3)n2)C1=O	–	–	–	baseline: hERG IC50 over antiviral EC50	therapeutic index	5.2
O=c1[nH]cccc1[C@H](CO)Nc1nc(N2C[C@@H]3C[C@H]2CO3)c2cc(-c3ccccc3)sc2n1	ion current, inhibitor	–	–	–	IC50	> 50 µM

A few entries again:
SMILES	assay	test system	setting	how to read	quantity	value
Cc1cc(/C=C/C#N)cc(C)c1Oc1nc(NC2CCN(Cc3ccc(S(C)(=O)=O)cc3)CC2)nc2ncccc12	hERG current, manual patch clamp	CHO stably expressing hERG	10 µM	–	inhibition	88.3%
